Results of several laboratories.
Protocols differ between the studies behind these lines. Numbers after ± are the reported error.
OPRK1: Kappa-type opioid receptor (OPRK1, Homo sapiens, UniProt P41145)

Sequences of proteins named here, by UniProt entry; tags and fusion partners are left off.
UniProt P42680, whole entry: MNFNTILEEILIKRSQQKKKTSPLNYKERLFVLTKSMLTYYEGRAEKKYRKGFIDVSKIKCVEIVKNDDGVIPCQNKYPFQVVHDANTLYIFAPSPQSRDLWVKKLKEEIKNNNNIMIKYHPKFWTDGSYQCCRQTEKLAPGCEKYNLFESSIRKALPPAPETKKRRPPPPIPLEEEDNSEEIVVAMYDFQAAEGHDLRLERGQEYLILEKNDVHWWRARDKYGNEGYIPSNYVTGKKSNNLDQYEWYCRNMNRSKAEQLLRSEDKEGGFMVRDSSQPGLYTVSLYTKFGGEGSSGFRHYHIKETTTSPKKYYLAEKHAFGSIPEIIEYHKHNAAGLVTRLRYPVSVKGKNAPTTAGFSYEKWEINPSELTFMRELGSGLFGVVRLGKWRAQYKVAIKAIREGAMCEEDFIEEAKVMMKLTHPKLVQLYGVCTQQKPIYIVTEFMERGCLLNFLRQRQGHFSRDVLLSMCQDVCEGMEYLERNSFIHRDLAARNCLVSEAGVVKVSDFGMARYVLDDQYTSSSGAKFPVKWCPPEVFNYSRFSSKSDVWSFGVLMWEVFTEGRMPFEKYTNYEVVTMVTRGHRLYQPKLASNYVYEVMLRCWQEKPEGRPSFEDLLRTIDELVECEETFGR
UniProt Q96NX5, whole entry: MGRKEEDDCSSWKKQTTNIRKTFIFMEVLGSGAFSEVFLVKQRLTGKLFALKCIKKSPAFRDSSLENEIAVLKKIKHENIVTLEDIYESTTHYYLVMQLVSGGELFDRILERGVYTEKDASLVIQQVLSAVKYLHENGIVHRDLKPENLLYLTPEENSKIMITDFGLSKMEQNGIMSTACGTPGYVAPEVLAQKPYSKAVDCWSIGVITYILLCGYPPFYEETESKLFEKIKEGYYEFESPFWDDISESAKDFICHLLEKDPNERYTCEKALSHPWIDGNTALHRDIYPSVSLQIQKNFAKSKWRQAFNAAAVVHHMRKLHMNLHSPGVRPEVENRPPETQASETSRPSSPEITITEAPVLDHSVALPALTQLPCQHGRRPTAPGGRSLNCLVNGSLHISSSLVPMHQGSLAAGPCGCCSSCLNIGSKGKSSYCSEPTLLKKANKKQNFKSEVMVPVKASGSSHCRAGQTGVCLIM

CO[C@]12CC[C@@]3(C[C@@H]1[C@](C)(O)CC(C)(C)c1ccccc1)[C@H]1Cc4ccc(O)c5c4[C@@]3(CCN1CC1CC1)[C@H]2O5 — Ki (OPRK1; radioligand binding; CHO; added: [3H]U69593): 4.15 ± 1.3 nM
O=C1CC2CC(c3cccc(O)c3)(CCN2CCc2ccccc2)C1 (stereo not shown) — Ki (OPRK1; radioligand binding; CHO expressing OPRK1; added: [3H]U-69593): 198 ± 19 nM
N=C(N)NCC(=O)NCC1(Cc2ccccc2)CCN(Cc2ccccc2)CC1 — Ki (OPRK1; binding; HEK293 membranes; added: [3H]U-69,593): 224 ± 20 nM
CN1CC[C@]2(c3cccc(O)c3)C[C@H]3CCCC[C@@H]3[C@H]1C2 (relative stereo) — Ki (OPRK1; radioligand binding; CHO expressing OPRK1; added: [3H]U-69593): 22 ± 0.87 nM
CC[C@](O)([C@H]1C[C@@]23CC[C@]1(OC)[C@@H]1Oc4c(O)ccc5c4[C@@]12CCN(CC1CC1)[C@@H]3C5)C(C)(C)C — Ki (OPRK1; binding, radioligand displacement; CHO; added: [3H]U-69593): 0.56 ± 0.01 nM
COC(=O)[C@@H]1C[C@H](OC(=O)CSC#N)C(=O)[C@H]2[C@@]1(C)CC[C@H]1C(=O)O[C@H](c3ccoc3)C[C@]21C — Ki (OPRK1; radioligand competition; added: [3H]diprenorphine): 39 ± 11 nM
CC[C@](O)([C@H]1C[C@@]23C=C[C@]1(OC)[C@@H]1Oc4c(O)ccc5c4[C@@]12CCN(CC1CC1)[C@@H]3C5)C(C)(C)C — Ki (OPRK1; binding, radioligand displacement; CHO; added: [3H]U-69593): 0.75 ± 0.11 nM
CO[C@]12CC[C@@]3(C[C@@H]1[C@@](C)(O)C(C)(C)C)[C@H]1Cc4c(Cl)cc(O)c5c4[C@@]3(CCN1CC1CC1)[C@H]2O5 — Ki (OPRK1; radioligand binding; CHO; added: [3H]U69593): 45.6 ± 3.4 nM
CO[C@]12CC[C@@]3(C[C@@H]1[C@](C)(O)c1ccccc1)[C@H]1Cc4ccc(O)c5c4[C@@]3(CCN1CC1CC1)[C@H]2O5 — Ki (OPRK1; binding, radioligand displacement; CHO; added: [3H]U-69593): 0.49 ± 0.08 nM
CO[C@]12CC[C@@]3(C[C@@H]1[C@@](C)(O)C(C)(C)C)[C@H]1Cc4c(Br)cc(O)c5c4[C@@]3(CCN1CC1CC1)[C@H]2O5 — Ki (OPRK1; radioligand binding; CHO; added: [3H]U69593): 9.93 ± 3.7 nM
CC#C/C(=N\OC[C@H]1COCCN1)c1ccc2ncnc(Nc3ccc(OCc4cccc(F)c4)c(Cl)c3)c2c1 — inhibition (Tyrosine-protein kinase Tec (TEC, Homo sapiens, UniProt P42680); kinase activity; 10 µM): 21.1%
COCO[C@H]1C[C@@H](C(=O)OC)[C@]2(C)CC[C@H]3C(=O)O[C@H](c4ccoc4)C[C@]3(C)[C@H]2C1=O — Ki (OPRK1; radioligand binding; CHO expressing OPRK1; added: [3H]U-69593): 1.9 ± 0.2 nM
CCN1CCN(Cc2ccc(NC(=O)c3ccc(C)c(/C=C/c4cnc5[nH]ccc5c4OC)c3)cc2C(F)(F)F)CC1 — log2 fold change (Calcium/calmodulin-dependent protein kinase type 1G (CAMK1G, Homo sapiens, UniProt Q96NX5); inhibitor, cell-based kinome screen; human cells; 5 µM; reference: vehicle): 0.21
CO[C@]12CC[C@@]3(C[C@@H]1[C@H](O)c1ccccc1)[C@H]1Cc4ccc(O)c5c4[C@@]3(CCN1CC1CC1)[C@H]2O5 — Ki (OPRK1; binding, radioligand displacement; CHO; added: [3H]U-69593): 4.4 ± 1.6 nM
N=C(N)NCC(=O)NCC1(Cc2cccc3ccccc23)CCN(Cc2ccccc2)CC1 — Ki (OPRK1; binding; HEK293 membranes; added: [3H]U-69,593): 362 ± 30 nM
CCCN1CCN(c2ccc3c(c2)C2CC3CCN2C(=O)OCc2ccccc2)CC1 (stereo not shown) — Ki (OPRK1; binding, radioligand binding): 8520 nM

Excerpt of the above:
CN1CC[C@]2(c3cccc(O)c3)C[C@H]3CCCC[C@@H]3[C@H]1C2 (relative stereo) — Ki (OPRK1; radioligand binding; CHO expressing OPRK1; added: [3H]U-69593): 22 ± 0.87 nM
CC[C@](O)([C@H]1C[C@@]23CC[C@]1(OC)[C@@H]1Oc4c(O)ccc5c4[C@@]12CCN(CC1CC1)[C@@H]3C5)C(C)(C)C — Ki (OPRK1; binding, radioligand displacement; CHO; added: [3H]U-69593): 0.56 ± 0.01 nM
